Measurements of several laboratories.
Protocols differ between the studies behind these lines.
Organism: Mycobacterium tuberculosis

| SMILES | observed | technique | strain | matrix | time | MIC |
| --- | --- | --- | --- | --- | --- | --- |
| Cc1c(Cc2ccc(Cl)nc2)c(=O)n2c([nH]c3ccccc32)c1C#N | microbial growth | resazurin | H37RV |  |  | 0.5 µg/mL |
| COc1ccc(-c2cc(-c3ccc(-n4cccc4)cc3)nc(N)n2)cc1 | microbial growth | resazurin | H37RV |  | 7 days | 0.78 µg/mL |
| Cc1c(Cc2ccc([S+](C)[O-])cc2)c(=O)n2c([nH]c3ccccc32)c1C#N (centres unmarked) | microbial growth | resazurin | H37RV |  |  | 2 µg/mL |
| NNC(=O)c1ccncc1 |  | microplate Alamar Blue | H37Rv |  |  | 2.62 µM |
| O=C(NC12CC3CC(CC(C3)C1)C2)c1ccc(NC(=O)c2cc3c(F)cc(F)cc3[nH]2)cc1 |  | microplate alamarBlue | H37Rv |  |  | > 32 µg/mL |
| COc1ccc(-c2c(NC(C)(C)C)oc3c2C(=O)c2ccccc2C3=O)cc1OC |  | resazurin microplate | H37Rv |  | 7 days + 24 h | > 147 µM |
| Cc1c(Cc2ccc(O)cc2)c(=O)n2c([nH]c3ccccc32)c1C#N | microbial growth | resazurin | H37RV |  |  | > 128 µg/mL |
| O=c1c2ccccc2[se]n1-c1ccc(F)cc1 | microbial growth | resazurin | H37RV |  |  | 25 µg/mL |
| CCc1ccc(NCC(=O)N2CCN(c3nc4ncccc4cc3C#N)CC2)cc1 |  | microplate Alamar Blue | H37Rv |  |  | 31.2 µM |
| C[C@H]1COC2(CCN(c3nc(=O)c4cc(C(F)(F)F)cc([N+](=O)[O-])c4s3)CC2)O1 |  |  | H37Rv, replicating |  |  | 0.003 µM |
| Cc1cccc(Cc2c(C)c(C#N)c3[nH]c4ccccc4n3c2=O)c1 | microbial growth | resazurin | H37RV |  |  | 8 µg/mL |
| CC(C)(C)Nc1oc2c(c1-c1cc3ccccc3[nH]1)C(=O)c1ccccc1C2=O |  | resazurin microplate | H37Rv |  | 7 days + 24 h | 42 µM |
| CCc1cc(CC)c(CNC(=O)c2ccc([N+](=O)[O-])o2)c(=O)[nH]1 | microbial growth | resazurin | H37RV |  |  | 19.8 µg/mL |
| CC[C@@H](CO)NCCN[C@@H](CC)CO |  | microplate Alamar Blue | H37Rv |  |  | 30.6 µM |
| Cc1[nH]c(=O)c(CNC(=O)Cc2ccc(C(F)(F)F)cc2)c2c1CCCC2 | microbial growth | resazurin | H37RV |  |  | 20 µg/mL |
| O=C1C(O)=C([C@H]2CC[C@H](c3ccc(Cl)cc3)CC2)C(=O)c2ccccc21 |  | resazurin microplate | H37Rv |  | 7 days + 24 h | > 147 µM |
| O=C(OCc1ccccc1)c1csc(-c2ccccc2)n1 |  |  | drug-sensitive clinical strain 2 | 7H9 glucose glycerol BSA medium |  | 2.5 µg/mL |
| Cc1c(CNC(=O)c2ccc(-c3ccc(C(F)(F)F)nc3)cc2)c(=O)[nH]c2ccccc12 | microbial growth | resazurin | H37RV |  |  | > 50 µg/mL |
| COc1cc(-c2c(NC(C)(C)C)oc3c2C(=O)c2ccccc2C3=O)cc(OC)c1OC |  | resazurin microplate | H37Rv |  | 7 days + 24 h | > 147 µM |
| Clc1ccc2c(c1)C=CC1(CCc3c(nnn3Cc3ccccc3)C1)O2 (centres unmarked) | microbial growth | resazurin | H37RV |  | 7 days | 12.5 µg/mL |
| CC(NC(=O)c1cc2c(F)cc(F)cc2[nH]1)C12CC3CC(CC(C3)C1)C2 (centres unmarked) |  | microplate alamarBlue | H37Rv |  |  | 0.25 µg/mL |
| Cc1[nH]c(=O)c(CNC(=O)c2ccc([N+](=O)[O-])s2)c2c1CCC2 | microbial growth | resazurin | H37RV |  |  | > 50 µg/mL |
| COc1cccc(Nc2ccc(N)c3nonc23)c1 | microbial growth |  | H37RV |  |  | 32 µM |
| CC[C@@H](CO)NCCN[C@@H](CC)CO | microbial growth | resazurin | H37RV |  | 7 days | 1.56 µg/mL |

| SMILES | observed | technique | strain | matrix | time | MIC |
| --- | --- | --- | --- | --- | --- | --- |
| O=C(Nc1cc(Cl)cc(Cl)c1)NC12CC3CC(CC(C3)C1)C2 | microbial growth | resazurin | H37RV |  |  | 1.47 µM |
| N#Cc1cc2cccnc2nc1N1CCN(CC(=O)Nc2ccccc2F)CC1 |  | microplate Alamar Blue | H37Rv |  |  | 32 µM |
| Cc1c(Cc2ccc(Cl)cc2)c(=O)n2c([nH]c3ccccc32)c1C#N | microbial growth | resazurin | H37RV |  |  | 0.5 µg/mL |
| O=c1c2ccccc2[se]n1CC1CCCCC1 | microbial growth | resazurin | H37RV |  |  | ≥ 50 µg/mL |
| COc1cccc(-c2ccc(C(=O)NCc3c4c(c(C)[nH]c3=O)CCCC4)cc2)c1 | microbial growth | resazurin | H37RV |  |  | > 25 µg/mL |
| O=C(OCc1ccccc1)[C@@H]1COC(c2cccnc2)=N1 |  |  | H37Rv |  | 168 h | > 50 µM |
| COc1ccc(-n2[se]c3ccccc3c2=O)cc1 | microbial growth | resazurin | H37RV |  |  | 25 µg/mL |
| O=C(NC(=O)c1cc2c(F)cc(F)cc2[nH]1)c1cccc(F)c1 |  | microplate alamarBlue | H37Rv |  |  | > 32 µg/mL |
| Nc1ccc(C(=O)O)c(O)c1 |  | microplate Alamar Blue | H37Rv |  |  | 81.6 µM |
| Cc1[nH]c(=O)c(CNC(=O)c2ccc(Br)nc2)c2c1CCCCC2 | microbial growth | resazurin | H37RV |  |  | > 50 µg/mL |
| N#Cc1cc2cccnc2nc1N1CCN(C(=O)CNc2ccc(Cl)cc2Cl)CC1 |  | microplate Alamar Blue | H37Rv |  |  | 113 µM |
| CC1=NN(CNC(=O)c2ccccc2)C(=O)C1=NNn1c(-c2ccccc2)nc2ccccc2c1=O | microbial growth | resazurin | H37RV |  |  | 6.49 µM |
| CCc1ccc(NC(=O)CN2CCN(c3nc4ncccc4cc3C#N)CC2)cc1 |  | microplate Alamar Blue | H37Rv |  |  | 62.4 µM |
| Cc1ccc2[nH]c(C(=O)NC(C)C34CC5CC(CC(C5)C3)C4)cc2c1 (centres unmarked) |  | microplate alamarBlue | H37Rv |  |  | 1 µg/mL |
| Cc1ccc(-n2nnc3c2CCC2(C=Cc4cc(C)ccc4O2)C3)cc1 (centres unmarked) |  | MABA | H37Rv |  | 7 days | > 25 µg/mL |
| NNC(=O)c1ccncc1 |  |  | H37Rv |  | 6 days | 2 to 4 µM |
| CCCCNc1oc2c(c1C1CCN(Cc3ccccc3)CC1)C(=O)c1ccccc1C2=O |  | resazurin microplate | H37Rv |  | 7 days + 24 h | 18 µM |
| Cc1cc2c(cc1Cl)C=CC1(CCc3c(nnn3-c3ccccc3)C1)O2 (centres unmarked) | microbial growth | resazurin | H37RV |  | 7 days | 3.12 µg/mL |
| CC(C)c1ccc(-c2ccnc(CN3CC[Si](C)(C)CC3)c2)cc1 | microbial growth | resazurin | H37RV |  |  | 0.5 to 1 µg/mL |
| Cc1c2c([nH]c(=O)c1CNC(=O)c1ccc(-c3ccccc3)o1)CCCC2 | microbial growth | resazurin | H37RV |  |  | > 50 µg/mL |
| Cc1cc(C)cc(NCC(=O)N2CCN(c3nc4ncccc4cc3C#N)CC2)c1 | microbial growth | resazurin | H37RV |  |  | > 125 µM |
| COc1cc(Cc2ccc(C(=O)NCc3c4c(c(C)[nH]c3=O)CCCC4)cc2)cc(OC)c1 | microbial growth | resazurin | H37RV |  |  | 15 µg/mL |
| O=C1c2ccccc2NC(c2cc([N+](=O)[O-])ccc2O)N1/N=C/c1cc([N+](=O)[O-])ccc1O (centres unmarked) | microbial growth |  | ATCC25177 H37RA |  |  | 142 µM |

A few entries again:
| SMILES | observed | technique | strain | matrix | time | MIC |
| --- | --- | --- | --- | --- | --- | --- |
| Clc1ccc2c(c1)C=CC1(CCc3c(nnn3Cc3ccccc3)C1)O2 (centres unmarked) | microbial growth | resazurin | H37RV |  | 7 days | 12.5 µg/mL |
| O=c1c2ccccc2[se]n1CC1CCCCC1 | microbial growth | resazurin | H37RV |  |  | ≥ 50 µg/mL |
| COc1ccc(-n2[se]c3ccccc3c2=O)cc1 | microbial growth | resazurin | H37RV |  |  | 25 µg/mL |
| Cc1c(CNC(=O)c2ccc(-c3ccc(C(F)(F)F)nc3)cc2)c(=O)[nH]c2ccccc12 | microbial growth | resazurin | H37RV |  |  | > 50 µg/mL |
| COc1cccc(-c2ccc(C(=O)NCc3c4c(c(C)[nH]c3=O)CCCC4)cc2)c1 | microbial growth | resazurin | H37RV |  |  | > 25 µg/mL |
| O=C(Nc1cc(Cl)cc(Cl)c1)NC12CC3CC(CC(C3)C1)C2 | microbial growth | resazurin | H37RV |  |  | 1.47 µM |
